{"data": "Assay results from different studies", "note": "Protocols differ between the studies behind these lines. ± gives the spread as reported."}
{"SMILES": "COc1cc(C(=O)NCCOCCOCCOCCNC(=O)c2ccc([18F])nc2)ccc1NC(=O)C1NC(CC(C)(C)C)C(C#N)(c2ccc(Cl)cc2F)C1c1cccc(Cl)c1F (centres unmarked)", "tested on": "HepG2 tumour model", "system": "host not given, bone", "conditions": "4 h, tumour-bearing", "quantity": "tracer uptake", "value": "0.65 %ID/g"}
{"SMILES": "CSCC[C@@H]1NC(=O)[C@@H]2CSSC[C@H](NC(=O)[C@H](CO)NC(=O)[C@H](C)N)C(=O)N[C@@H](CCCNC(=N)N)C(=O)N[C@@H]([C@@H](C)O)C(=O)N3CCC[C@H]3C(=O)N[C@@H](CCCCN)C(=O)N[C@@H](CC(=O)O)C(=O)N[C@H]3CSSC[C@H](NC(=O)[C@H](CCCCN)NC(=O)[C@H](CCCNC(=N)N)NC(=O)[C@H](CC(N)=O)NC1=O)C(=O)N[C@@H](CCCCN)C(=O)N[C@H]1CSSC[C@H](NC(=O)[C@@H]4CCCN4C(=O)[C@H](CC(=O)O)NC(=O)[C@H](C)NC3=O)C(=O)N[C@@H](C)C(=O)N[C@@H](CCCCN)C(=O)N[C@@H](CCC(=O)O)C(=O)N[C@@H]([C@@H](C)O)C(=O)NCC(=O)N[C@@H](CSSC[C@@H](C(N)=O)NC(=O)[C@H](CCCNC(=N)N)NC(=O)[C@H](CC(N)=O)NC1=O)C(=O)N1CCC[C@H]1C(=O)N[C@@H](Cc1ccc(O)cc1)C(=O)NCC(=O)N[C@@H](CCCCN)C(=O)N2", "system": "DA rat pristane-induced arthritis, serum", "conditions": "subcutaneous, 0.1 mg/kg every other day, 21 days", "quantity": "Triglycerides", "value": "45.2 mg/dL"}
{"SMILES": "CCC(=O)N(C)c1ccc(Cl)c(Cl)c1", "tested on": "Salmonella typhimurium", "assay": "Ames test", "system": "TA1537", "conditions": "1.00 mg/plate, without S9 activation", "quantity": "revertants", "value": "1 ± 0.6 revertants/plate"}
{"SMILES": "CN(C)CC1CCCCC1(O)c1cccc(O)c1 (centres unmarked)", "tested on": "human P-glycoprotein", "system": "Caco-2 TC7 monolayer", "conditions": "50 µM, 3 h, apical pH 6.8, basolateral pH 7.4, together with: cyclosporine A 10 µM", "how to read": "reference: B-to-A over A-to-B", "quantity": "efflux ratio", "value": 3}
{"SMILES": "COc1ccc(CNc2nc(N3CCC[C@H]3CO)ncc2C(=O)NNC(=O)c2cnc(N3CCC[C@H]3CO)nc2NCc2ccc(OC)c(Cl)c2)cc1Cl", "tested on": "Salmonella typhimurium", "system": "TA1535", "conditions": "500 µg/plate, 48 h, together with: rat liver S9", "quantity": "revertant count", "value": "35 ± 7"}
{"SMILES": "CN[C@](C)(C[18F])C(=O)O", "tested on": "A549 tumour model", "system": "host not given, tumour", "conditions": "15 min, tumour-bearing", "quantity": "tracer uptake", "value": "4.4 %ID/g"}
{"SMILES": "COc1ccc(CNc2nc(N3CCC[C@H]3CO)ncc2C(=O)NN)cc1Cl", "tested on": "Salmonella typhimurium", "system": "TA102", "conditions": "250 µg/plate", "quantity": "revertant count", "value": "223 ± 12"}
{"SMILES": "CC[C@H](C)C(=O)N1CCC(NC(=O)Nc2ccc(OC(F)(F)F)c(F)c2)CC1", "system": "healthy volunteers, both sexes", "conditions": "oral, 8 mg, fed state", "quantity": "subjects with treatment-emergent headache", "value": "7.1%"}
{"note": "Excerpt of the above:"}
{"SMILES": "CC[C@H](C)C(=O)N1CCC(NC(=O)Nc2ccc(OC(F)(F)F)c(F)c2)CC1", "system": "healthy volunteers, both sexes", "conditions": "oral, 8 mg, fed state", "quantity": "subjects with treatment-emergent headache", "value": "7.1%"}
